Results gathered from unrelated publications.
Compare with care: the assays were run in different laboratories. Several values in a cell are separate wells, animals, samples, runs or records. ± marks the error that the study gave.

`COC(=O)c1ccc(-c2cn(Cc3cc(Cl)ccc3O[11CH3])nn2)cc1` has a distribution volume of 0.64 mL/cm³ (PET, two-tissue compartment model; rhesus monkey, brain Putamen; dose not given).
For `CCC(CC)[C@H](NC(C)=O)[C@@H]1[C@H](O)[C@@H](C(=O)N[C@H](C(=O)O)[C@@H](C)CC)C[C@H]1NC(=N)N`, the t1/2 was 8.3 ± 0.1 h (rat, Sprague-Dawley, liver homogenate; 100 µg/mL, pH 7.4, 37 °C).
For `N=C(N)NCCC[C@@H]1NC(=O)[C@H](Cc2c[nH]c3ccccc23)NC(=O)[C@@H](CC2CCCCC2)NC(=O)[C@@H]2CCCN2C(=O)[C@@H](NC(=O)CCc2ccccc2)CCCNC1=O`, the absorption half-life was 0.314 h (C57BL/6J mice, plasma; subcutaneous, 1 mg/kg).
`C[Si]1(C[C@H](CN)CC(=O)O)CCCC1` has a Tmax of 0.67 h (male Sprague-Dawley rat, plasma; oral, 100 mg/kg, single dose).
`CCN(CC)c1ccc2c(-c3ccccc3C(=O)OCCOCCOCC[18F])c3ccc(=[N+](CC)CC)cc-3oc2c1` gave a tissue uptake of 1.32 %ID/g and 1.03 %ID/g (rat, heart; 60 min).
`CC(=O)N[C@H](CC(=O)O)C(=O)N[C@H](Cc1c[nH]c2ccccc12)C(=O)N[C@H](Cc1ccccc1)C(=O)N[C@H](CCCCN)C(=O)N[C@H](C)C(=O)N[C@H](Cc1ccccc1)C(=O)N[C@H](Cc1ccc(O)cc1)C(=O)N[C@H](CC(=O)O)C(=O)N[C@H](CCCCN)C(=O)N[C@@H](C(=O)N[C@H](C)C(=O)N[C@H](CCC(=O)O)C(=O)N[C@H](CCCCN)C(=O)N[C@H](Cc1ccccc1)C(=O)N[C@H](CCCCN)C(=O)N[C@H](CCC(=O)O)C(=O)N[C@H](C)C(=O)N[C@H](Cc1ccccc1)C(N)=O)C(C)C` has a Cmax of 2.84 ng/mL (statin-treated high-risk CHD men, plasma; oral, 100 mg daily, day 1, 0 to 2 h, mean, detected subjects only).
For `Cc1cccc(-c2cccc(C)n2)n1.Cc1cccc(-c2cccc(C)n2)n1.[Cl-].[Cl-].[Ru+2].c1ccc(-c2ccnc3c2ccc2c(-c4ccccc4)ccnc23)cc1`, “total release from nanoassemblies” read 72.5% (phosphate buffer with NaCl; concentration not given, pH 6.0, 37 °C, dark, dialysis).
The excreted amount of `Nc1nccc(-c2cn(C3CC3)c3ccccc23)n1` is reported as 0.94% (radio-HPLC, co-eluting peaks pooled; human male, feces; oral, 110 mg, 0 to 240 h, sample holds 81.99% dose; baseline: dose).
With `CC(=O)N[C@H](CCCCN)C(=O)N[C@H](CC(C)C)C(=O)N[C@H](CCCCN)C(=O)N[C@H](CO)C(=O)N[C@H](CC(C)C)C(=O)N[C@H](CC(C)C)C(=O)N[C@H](CCCCN)C(=O)N[C@@H](C(=O)N[C@H](CC(C)C)C(=O)N[C@H](CO)C(=O)N[C@H](CCCCN)C(=O)N[C@H](C)C(=O)N[C@H](CCCCN)C(=O)N[C@H](CCCCN)C(=O)N[C@H](CCCCN)C(=O)N[C@H](CCCCN)C(=O)N[C@H](CC(C)C)C(=O)N[C@H](CCCCN)C(=O)N[C@@H](C(=O)N[C@H](CC(C)C)C(=O)N[C@H](CC(C)C)C(=O)N[C@H](CCCCN)C(=O)N[C@H](C)C(=O)N[C@H](CC(C)C)C(=O)N[C@H](CO)C(=O)N[C@H](CCCCN)C(N)=O)[C@H](C)O)[C@H](C)O` the helical content was 89% (circular dichroism; 50% trifluoroethanol buffer; 5 °C; baseline: reference peptide in TFE).
The measured concentration of `Oc1ccc2ccccc2c1/N=N/c1ccc(/N=N/c2ccccc2)cc1` is reported as 0.218 µg/L (extracted rat blood QC samples; 0.2 µg/L, 8 h, room temperature, short-term stability).
`CC(C)[C@H](NC(=O)[C@@H]1CCCN1C(=O)[C@H](CCCNC(=N)N)NC(=O)[C@H](CS)NC(=O)[C@H](Cc1c[nH]c2ccccc12)NC(=O)[C@H](CCCNC(=N)N)NC(=O)[C@@H](Cc1ccccc1)NC(=O)[C@H](Cc1c[nH]cn1)NC(=O)[C@H](CCC(=O)O)NC(=O)[C@H](CS)NC(=O)[C@H](CS)NC(=O)[C@@H]1CC(=O)N[C@@H](CCCNC(=N)N)C(=O)NCC(=O)N[C@@H](CC(=O)O)C(=O)N[C@H](Cc2ccc(O)cc2)C(=O)N1)C(N)=O` [technetium-99m labelled] — result for “tumour to tissue ratio”: 60.5 (C57 mouse, female, B16/F1 melanoma; intravenous, 0.037 MBq, 4 h; baseline: tumour over muscle).
Under “AUC(0-inf) metabolic ratio”, `O=C(O)c1cccc(S(=O)(=O)Nc2ccccc2)c1` is recorded as 1.01 (human, mild liver dysfunction, plasma; intravenous, 400 mg/m^2 belinostat, cycle 1 day -7, geometric mean; baseline: metabolite over belinostat).
With `O=C(NCCCN(CCCCN(CCCNC(=O)c1cccc(=O)n1[O-])C(=O)c1cccc(=O)n1[O-])C(=O)c1cccc(=O)n1[O-])c1cccc(=O)n1[O-].[89Zr+4]` the intact complex was 98.3 ± 2.4% (radio-TLC; PBS; 5 d, pH 7.4, 37 °C, added: Cu^2+ 10-fold excess).
`COc1ccc(-c2csc(N/N=C(\C)c3cc(O)cc(O)c3)n2)cc1`: “concentration after storage” 3.48 ng/mL (LC-MS/MS; rat plasma; 3.75 ng/mL, freeze-thaw 5 cycles at -70 °C).
With `O=C(Cc1ccc2ccccc2c1)N[C@H](Cc1ccccc1)C(=O)N[C@H](Cc1ccc(OP(=O)(O)O)cc1)C(=O)N[C@H](Cc1ccccc1)C(=O)N[C@H](Cc1ccc(OP(=O)(O)O)cc1)C(=O)O` the gelation time was 2 h (substrate, rheology; hydrogel; 0.5 wt%, added: alkaline phosphatase 0.05 U/mL).
For `CCC(=C(c1ccc(Cl)cc1)c1ccc(OCCN2CCOCC2)cc1)c1ccc(OC)cc1`, the AUC(0-inf) was 55400 ng·h/mL (female C57BL/6 mouse, plasma; oral, 400 mg/kg, single dose).
Under “mean absorbed dose”, `NC12CNCCNCC(NCc3ccc(CNC(=O)CCCC(=O)NCc4ccc(-c5nncnn5)cc4)cc3)(CNCCNC1)CNCCNC2.[64Cu+2]` is recorded as 0.0258 rad/mCi (OLINDA dosimetry; red marrow; pretargeting, 120-h interval).
`O=C([O-])CN1CCN(CC(=O)[O-])CCN(CC(=O)NC[C@H]2CC[C@H](C(=O)N[C@H](Cc3cnc4ccccc4c3)C(=O)NCCCC[C@H](NC(=O)N[C@@H](CCC(=O)O)C(=O)O)C(=O)O)CC2)CCN(CC(=O)[O-])CC1.[64Cu+2]` gave an absorbed dose of 0.00874 mGy/MBq (PET/CT dosimetry OLINDA/EXM; healthy volunteers, eyes; up to 24 h post-injection).
Under “tumour activity concentration”, `NC(=O)[C@@H](CCCCNC(=O)CNC(=O)CCC(=O)NCCc1c[nH]cn1)NC(=O)[C@@H](CCC(=O)O)NC(=O)[C@@H](CCCCNC(=O)CNC(=O)CCC(=O)NCCc1c[nH]cn1)NC(=O)[C@@H](Cc1ccc(O)cc1)NC(=O)CN1CCN(CC(=O)O)CCN(CC(=O)O)CCN(CC(=O)O)CC1` [indium-111 labelled] is recorded as 1.4 %ID/kg (SPECT; human CEACAM5 tumour patients; dose not given, 24 h, 100 µg IMP288, added: TF2 75 mg, 5 days interval).
For `COc1cc2c(cc1OC)CN(CCCCn1ccc3cc(OCC[18F])ccc31)C2`, the tracer uptake was 4.31 %ID/g (male CD-1 mouse, spleen; intravenous, 2 h).
For `CCCCCCCCCCCCCCCC(=O)NCCOCCOCCOCCOCCOCCOCCOCCOCCC(=O)NCCCC[C@H](NC(=O)CNC(=O)[C@@H]1CSSC[C@H](N)C(=O)N[C@@H](Cc2ccc(O)cc2)C(=O)N[C@@H]([C@@H](C)CC)C(=O)N[C@@H](CCC(N)=O)C(=O)N[C@@H](CC(N)=O)C(=O)N1)C(=O)NCC(N)=O`, “brain to plasma AUC ratio” read 0.004 (rat; subcutaneous depot, 10 mg/kg).
The HC50 of `CC(CCCOC(=O)CCC[N+](C)(C)C)C1CCC2C3C(OC(=O)CCC[N+](C)(C)C)CC4CC(OC(=O)CCC[N+](C)(C)C)CCC4(C)C3CC(OC(=O)CCC[N+](C)(C)C)C12C` (stereo not shown) is reported as greater than 1000 µg/mL (mouse red blood cells; 1 h, 37 °C).
`Cn1c(=O)oc2ccc(-c3ccc(CC(C#N)NC(=O)C4CNCCCO4)c(F)c3)cc21` (stereo not shown) gave an AUC(0-inf) of 3700 ng·h/mL (human, fed, plasma; 40 mg single dose, geometric mean).
`Cc1cc(O)cc(O)c1C(=O)c1c2c3c(c(O)cc(C)c3oc1=O)C(=O)c1c(O)cc(O)cc1-2` has a Papp B→A of 0.008 ×10⁻⁶ cm/s (Caco-2; 400 µM, 3 h, pH 7.4).
For `CC(C)[C@H](NC(=O)CNC(=O)[C@H](CCC(N)=O)NC(=O)[C@H](C)N)C(=O)O`, “volume of distribution” read 33 L/kg (human male, plasma; intravenous infusion, 30 mg/kg single, 15 min infusion, geometric mean).
`COCCOCCOCCOCCC(=O)NCc1cc(CNC(=O)CCOCCOCCOCCOC)cc(-c2cc3cc4nc(c(-c5ccc(CCC(=O)O)cc5)c5[nH]c(cc6nc(c(OC)c2[nH]3)CC6(C)C)cc5-c2cc(CNC(=O)CCOCCOCCOCCOC)cc(CNC(=O)CCOCCOCCOCCOC)c2)CC4(C)C)c1`: “singlet excited-state lifetime” 3.74 ns (DMF; room temperature).
`COc1ccc(C=NCCCN(C)CCN(C)CCCN=Cc2ccc(OC)cc2[O-])c([O-])c1.[67Ga+3]`: “tissue uptake ratio” 4 ± 0.4 (rat; intravenous, 1 min; baseline: heart over blood).
`CC(C)CCCC(C)CCCC(C)CCO[C@@H]1O[C@H](CO)[C@@H](O[C@H]2O[C@H](CO)[C@@H](O)[C@H](O)[C@H]2O)[C@H](O)[C@H]1O` (stereo partly shown) gave an interfacial tension of less than 1 mN/m (drop shape tensiometry; water/n-octane; 0.01 wt%, 100 s).
For `[11CH3]c1ccc2nc(C3CCC3)n(-c3ccc4[nH]ncc4c3)c2n1`, the tracer uptake was no less than 5 %ID/g (mouse, heart; 1 min).
`CCCC[C@H](NC(=O)CNC(=O)CNC(=O)CN1CCN(CC(=O)O)CCN(CC(=O)O)CCN(CC(=O)O)CC1)C(=O)N[C@H]1CC(=O)NCCCC[C@@H](C(N)=O)NC(=O)[C@H](Cc2c[nH]c3ccccc23)NC(=O)[C@H](CCCNC(=N)N)NC(=O)[C@@H](Cc2ccccc2)NC(=O)[C@H](Cc2c[nH]cn2)NC1=O` [gallium-67 labelled]: “tumour to skin uptake ratio” 5.08 (C57 mice, B16/F1 melanoma; 0.5 h).
`CCCC[C@H](NC(=O)CNC(=O)CNC(=O)CN1CCN(CC(=O)O)CCN(CC(=O)O)CCN(CC(=O)O)CC1)C(=O)N[C@H]1CC(=O)NCCCC[C@@H](C(N)=O)NC(=O)[C@H](Cc2c[nH]c3ccccc23)NC(=O)[C@H](CCCNC(=N)N)NC(=O)[C@@H](Cc2ccccc2)NC(=O)[C@H](Cc2c[nH]cn2)NC1=O` [copper-64 labelled]: serum stability “stable” (RP-HPLC; mouse serum; 2 h, 37 °C).
The excreted amount of `C=CC(=O)Nc1cc(Nc2nccc(-c3cn(C4CC4)c4ccccc34)n2)c(OC)cc1NC` is reported as 0.22% (radio-HPLC; human male, feces; oral, 110 mg, 96 to 240 h, sample holds 16.61% dose; baseline: dose).
`C[C@H](NC(=O)COC(=O)[C@H](C)NC(=O)CO)C(=O)O` has a depolymerization half-life of 1.34 h (water; pH 6, 37 °C).
`CN[C@@H]1[C@H](O)[C@H](NC)[C@H]2O[C@]3(O)[C@H](O[C@@H]2[C@H]1O)O[C@H](C)C[C@@]3(O)CNCCC1CCOCC1` has a C0 of 38000 to 74000 ng/mL (male BALB/c mouse, plasma; intravenous, 10 mg/kg).

Excerpt of the above:
`COc1ccc(-c2csc(N/N=C(\C)c3cc(O)cc(O)c3)n2)cc1`: “concentration after storage” 3.48 ng/mL (LC-MS/MS; rat plasma; 3.75 ng/mL, freeze-thaw 5 cycles at -70 °C).
With `O=C(Cc1ccc2ccccc2c1)N[C@H](Cc1ccccc1)C(=O)N[C@H](Cc1ccc(OP(=O)(O)O)cc1)C(=O)N[C@H](Cc1ccccc1)C(=O)N[C@H](Cc1ccc(OP(=O)(O)O)cc1)C(=O)O` the gelation time was 2 h (substrate, rheology; hydrogel; 0.5 wt%, added: alkaline phosphatase 0.05 U/mL).
